Results of several laboratories.
Each numbered part is a random draw from the data of one study; scales do not carry over between parts.
Sequence of UniProt Q16539 (whole entry, looked up): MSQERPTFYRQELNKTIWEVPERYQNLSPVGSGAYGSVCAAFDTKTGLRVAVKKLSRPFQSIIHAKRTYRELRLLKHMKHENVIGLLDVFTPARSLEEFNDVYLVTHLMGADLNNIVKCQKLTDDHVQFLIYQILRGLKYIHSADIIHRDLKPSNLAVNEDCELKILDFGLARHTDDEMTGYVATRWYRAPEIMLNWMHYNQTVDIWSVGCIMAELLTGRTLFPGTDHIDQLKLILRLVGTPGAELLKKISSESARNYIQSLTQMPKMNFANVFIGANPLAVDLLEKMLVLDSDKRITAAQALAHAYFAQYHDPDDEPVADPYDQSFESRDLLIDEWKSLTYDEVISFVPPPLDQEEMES
Sequence of UniProt Q8NEV4 (whole entry, looked up): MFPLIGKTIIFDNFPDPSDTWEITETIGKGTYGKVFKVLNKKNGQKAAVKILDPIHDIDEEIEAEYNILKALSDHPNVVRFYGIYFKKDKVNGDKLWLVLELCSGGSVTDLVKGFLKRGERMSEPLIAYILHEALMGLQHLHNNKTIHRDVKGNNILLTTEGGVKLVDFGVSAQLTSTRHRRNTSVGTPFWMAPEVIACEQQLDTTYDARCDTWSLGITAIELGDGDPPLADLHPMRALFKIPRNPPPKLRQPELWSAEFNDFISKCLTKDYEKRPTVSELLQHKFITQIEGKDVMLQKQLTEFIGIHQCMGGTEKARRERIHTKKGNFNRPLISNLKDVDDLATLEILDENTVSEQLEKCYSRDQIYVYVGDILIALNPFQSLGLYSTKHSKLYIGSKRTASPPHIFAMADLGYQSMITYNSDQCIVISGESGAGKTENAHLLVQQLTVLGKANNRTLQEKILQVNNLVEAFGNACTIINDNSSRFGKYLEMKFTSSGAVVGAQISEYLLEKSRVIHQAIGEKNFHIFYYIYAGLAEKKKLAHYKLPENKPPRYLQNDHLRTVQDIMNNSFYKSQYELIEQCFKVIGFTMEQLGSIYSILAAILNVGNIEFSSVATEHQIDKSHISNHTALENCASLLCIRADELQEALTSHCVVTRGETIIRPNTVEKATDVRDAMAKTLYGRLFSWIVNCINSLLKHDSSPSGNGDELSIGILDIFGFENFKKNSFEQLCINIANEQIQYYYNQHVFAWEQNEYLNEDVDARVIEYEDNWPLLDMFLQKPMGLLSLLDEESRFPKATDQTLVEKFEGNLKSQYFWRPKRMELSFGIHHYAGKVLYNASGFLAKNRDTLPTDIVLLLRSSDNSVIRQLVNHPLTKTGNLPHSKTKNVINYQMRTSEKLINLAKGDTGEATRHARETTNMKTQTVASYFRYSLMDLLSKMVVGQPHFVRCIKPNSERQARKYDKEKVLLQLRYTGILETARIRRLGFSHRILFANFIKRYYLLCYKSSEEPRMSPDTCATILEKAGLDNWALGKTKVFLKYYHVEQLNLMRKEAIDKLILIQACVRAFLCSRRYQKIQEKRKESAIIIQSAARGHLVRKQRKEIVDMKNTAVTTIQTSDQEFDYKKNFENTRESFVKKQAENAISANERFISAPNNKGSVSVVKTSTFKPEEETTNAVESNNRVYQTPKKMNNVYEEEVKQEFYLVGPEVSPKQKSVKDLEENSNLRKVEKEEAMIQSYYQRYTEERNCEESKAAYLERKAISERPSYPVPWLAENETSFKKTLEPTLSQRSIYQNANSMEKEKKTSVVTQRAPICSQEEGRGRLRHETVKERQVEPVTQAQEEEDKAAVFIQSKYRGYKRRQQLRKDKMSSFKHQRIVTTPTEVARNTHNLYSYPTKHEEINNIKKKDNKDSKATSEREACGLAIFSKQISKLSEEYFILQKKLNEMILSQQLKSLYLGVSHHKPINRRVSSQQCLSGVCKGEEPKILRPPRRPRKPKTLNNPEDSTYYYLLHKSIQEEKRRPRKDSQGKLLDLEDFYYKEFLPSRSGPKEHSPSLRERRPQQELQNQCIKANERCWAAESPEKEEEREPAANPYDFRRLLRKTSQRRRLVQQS
Sequence of UniProt Q59H18 (whole entry, looked up): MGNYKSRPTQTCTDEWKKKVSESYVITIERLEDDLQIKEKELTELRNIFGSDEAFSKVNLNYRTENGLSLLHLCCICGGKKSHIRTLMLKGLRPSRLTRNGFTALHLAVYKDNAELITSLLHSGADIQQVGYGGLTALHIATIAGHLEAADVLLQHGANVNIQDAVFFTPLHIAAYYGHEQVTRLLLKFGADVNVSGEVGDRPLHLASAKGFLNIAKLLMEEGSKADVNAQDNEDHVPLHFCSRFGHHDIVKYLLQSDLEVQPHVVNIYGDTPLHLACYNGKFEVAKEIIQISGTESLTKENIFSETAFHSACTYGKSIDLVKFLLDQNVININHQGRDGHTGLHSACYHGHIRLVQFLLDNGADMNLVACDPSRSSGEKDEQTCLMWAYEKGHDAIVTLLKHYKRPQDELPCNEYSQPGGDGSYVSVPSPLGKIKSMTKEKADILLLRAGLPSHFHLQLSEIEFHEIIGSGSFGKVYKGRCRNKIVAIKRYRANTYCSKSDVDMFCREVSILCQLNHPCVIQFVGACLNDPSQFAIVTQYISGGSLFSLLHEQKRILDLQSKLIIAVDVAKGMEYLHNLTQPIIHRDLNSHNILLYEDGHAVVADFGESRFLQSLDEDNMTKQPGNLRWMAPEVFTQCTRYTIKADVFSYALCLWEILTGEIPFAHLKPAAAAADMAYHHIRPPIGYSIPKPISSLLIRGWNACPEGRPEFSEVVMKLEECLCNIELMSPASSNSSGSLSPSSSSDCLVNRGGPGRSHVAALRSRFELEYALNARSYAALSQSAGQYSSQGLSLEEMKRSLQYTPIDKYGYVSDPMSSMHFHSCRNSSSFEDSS
Sequence of UniProt Q8N568 (whole entry, looked up): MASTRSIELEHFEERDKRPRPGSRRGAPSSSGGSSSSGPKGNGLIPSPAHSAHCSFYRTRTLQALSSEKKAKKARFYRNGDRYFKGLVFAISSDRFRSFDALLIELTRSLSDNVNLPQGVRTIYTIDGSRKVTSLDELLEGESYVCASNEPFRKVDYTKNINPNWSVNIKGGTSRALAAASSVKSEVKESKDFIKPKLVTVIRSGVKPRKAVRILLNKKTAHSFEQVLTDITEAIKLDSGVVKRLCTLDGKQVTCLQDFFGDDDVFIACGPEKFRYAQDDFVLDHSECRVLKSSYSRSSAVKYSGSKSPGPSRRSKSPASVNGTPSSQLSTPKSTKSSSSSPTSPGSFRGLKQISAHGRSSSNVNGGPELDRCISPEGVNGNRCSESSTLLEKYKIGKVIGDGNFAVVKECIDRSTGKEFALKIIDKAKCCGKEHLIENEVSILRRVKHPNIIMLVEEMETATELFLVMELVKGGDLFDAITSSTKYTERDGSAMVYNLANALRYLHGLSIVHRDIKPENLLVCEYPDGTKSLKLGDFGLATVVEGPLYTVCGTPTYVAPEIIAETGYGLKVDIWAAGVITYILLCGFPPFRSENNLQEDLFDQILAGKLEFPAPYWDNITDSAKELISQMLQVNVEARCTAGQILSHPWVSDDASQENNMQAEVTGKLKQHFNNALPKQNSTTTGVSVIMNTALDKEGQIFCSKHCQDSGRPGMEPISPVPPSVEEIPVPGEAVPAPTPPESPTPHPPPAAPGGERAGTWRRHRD

Study 1 — concentration: 1 µM
Structure (SMILES): O=S(=O)(NC1CCC(c2cc(F)ccc2F)(S(=O)(=O)c2ccc(Cl)cc2)CC1)C(F)(F)F (stereo not drawn)
| target | assay | remaining binding [%] |
| --- | --- | --- |
| TNNI3K (Homo sapiens, UniProt Q59H18) | cell-free assay, competition with immobilised ligand | 100 |
| SIK1 (Homo sapiens, UniProt P57059) | competition binding | 100 |
| IRAK3 (Homo sapiens, UniProt Q9Y616) | cell-free assay, competition with immobilised ligand | 98 |
| PDGFRB (Homo sapiens, UniProt P09619) | cell-free assay, competition with immobilised ligand | 100 |
| MKNK1 (Homo sapiens, UniProt Q9BUB5) | cell-free assay, competition with immobilised ligand | 93 |
| RET (Homo sapiens, UniProt P07949, M918T) | cell-free assay, competition with immobilised ligand | 92 |
| Myosin-IIIa (MYO3A, Homo sapiens, UniProt Q8NEV4) | binding, competition with immobilised ligand | 91 |
| ACVR2A (Homo sapiens, UniProt P27037) | cell-free assay, competition with immobilised ligand | 63 |
| SGK2 (Homo sapiens, UniProt Q9HBY8) | cell-free assay, competition with immobilised ligand | 93 |
| CAMK2B (Homo sapiens, UniProt Q13554) | cell-free assay, competition with immobilised ligand | 97 |
| EGFR (Homo sapiens, UniProt P00533, L858R/T790M) | cell-free assay, competition with immobilised ligand | 89 |
| Aurora kinase A (AURKA, Homo sapiens, UniProt O14965) | cell-free assay, competition with immobilised ligand | 100 |
| ROCK2 (Homo sapiens, UniProt O75116) | cell-free assay, competition with immobilised ligand | 100 |
| FLT3 (Homo sapiens, UniProt P36888, ITD) | cell-free assay, competition with immobilised ligand | 91 |
| CAMKK2 (Homo sapiens, UniProt Q96RR4) | cell-free assay, competition with immobilised ligand | 100 |
| EGFR (Homo sapiens, UniProt P00533, A750P/del747-749) | cell-free assay, competition with immobilised ligand | 92 |
| CAMK1 (Homo sapiens, UniProt Q14012) | cell-free assay, competition with immobilised ligand | 84 |
| CSNK1E (Homo sapiens, UniProt P49674) | cell-free assay, competition with immobilised ligand | 85 |
| Aurora kinase B (AURKB, Homo sapiens, UniProt Q96GD4) | cell-free assay, competition with immobilised ligand | 100 |
| CAMK2D (Homo sapiens, UniProt Q13557) | cell-free assay, competition with immobilised ligand | 100 |
| WNK4 (Homo sapiens, UniProt Q96J92) | cell-free assay, competition with immobilised ligand | 100 |
| ACVR2B (Homo sapiens, UniProt Q13705) | binding, competition with immobilised ligand | 95 |
| FLT3 (Homo sapiens, UniProt P36888, D835V) | cell-free assay, competition with immobilised ligand | 82 |
| EGFR (Homo sapiens, UniProt P00533, del747-752/P753S) | cell-free assay, competition with immobilised ligand | 0 |
| INSRR (Homo sapiens, UniProt P14616) | cell-free assay, competition with immobilised ligand | 100 |

Study 2 — SMILES: O=C(O)/C=C/c1cc(Br)c(Br)c(Br)c1Br; effect on: enzyme activity; mode: inhibitor; concentration: 0.5 µM; relative to: control
| target | remaining activity [%] |
| --- | --- |
| MAPK14 (Homo sapiens, UniProt Q16539) | 99.5 |
| PLK3 (Homo sapiens, UniProt Q9H4B4) | 73.6 |
| ROCK1 (Homo sapiens, UniProt Q13464) | 97.6 |
| DCLK2 (Homo sapiens, UniProt Q8N568) | 94.8 |
| MAPK11 (Homo sapiens, UniProt Q15759) | 92.7 |
| KDR (Homo sapiens, UniProt P35968) | 90.1 |
| TXK (Homo sapiens, UniProt P42681) | 98.7 |
| MINK1 (Homo sapiens, UniProt Q8N4C8) | 96 |
| MAPK1 (Homo sapiens, UniProt P28482) | 98.5 |
| MAP2K1 (Homo sapiens, UniProt Q02750) | 95.8 |
| GRK4 (Homo sapiens, UniProt P32298) | 101 |
| PAK3 (Homo sapiens, UniProt O75914) | 100 |
| MET (Homo sapiens, UniProt P08581) | 84.5 |
| Cyclin-dependent kinase 9, with cyclin K (CDK9, Homo sapiens, UniProt P50750) | 65.3 |

Study 3 — effect on: enzyme activity; mode: inhibitor; concentration: 10 µM
Target: Calcium/calmodulin-dependent protein kinase type II subunit alpha (CAMK2A, Homo sapiens, UniProt Q9UQM7)
Sequence of UniProt Q9UQM7 (whole entry, looked up): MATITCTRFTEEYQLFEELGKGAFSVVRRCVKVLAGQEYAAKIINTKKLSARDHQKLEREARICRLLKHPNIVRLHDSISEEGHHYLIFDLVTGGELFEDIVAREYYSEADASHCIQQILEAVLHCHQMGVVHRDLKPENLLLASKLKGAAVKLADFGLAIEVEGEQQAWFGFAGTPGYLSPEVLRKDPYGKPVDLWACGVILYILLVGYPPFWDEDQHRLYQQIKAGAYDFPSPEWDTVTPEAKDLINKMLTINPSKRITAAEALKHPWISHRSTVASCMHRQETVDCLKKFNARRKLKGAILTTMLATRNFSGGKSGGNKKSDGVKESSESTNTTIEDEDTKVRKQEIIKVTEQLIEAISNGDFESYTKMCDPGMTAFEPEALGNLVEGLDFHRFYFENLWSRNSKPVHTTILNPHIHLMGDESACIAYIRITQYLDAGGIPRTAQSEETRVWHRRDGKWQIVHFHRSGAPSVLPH
| Structure (SMILES) | inhibition |
| --- | --- |
| O=c1c(O)cccc2cc(O)c(O)c(O)c12 | 0% |
| O=c1cccccc1O | 7% |
| CCNC(=O)[C@@H]1CCCN1C(=O)[C@H](CCCN=C(N)N)NC(=O)[C@H](CC(C)C)NC(=O)[C@@H](C)NC(=O)[C@H](Cc1ccc(O)cc1)NC(=O)[C@H](CO)NC(=O)[C@H](Cc1c[nH]c2ccccc12)NC(=O)[C@H](Cc1cnc[nH]1)NC(=O)C1CCC(=O)N1 (stereo partly drawn) | -8% |
| CCCCNc1cc(C(=O)O)cc(S(N)(=O)=O)c1Oc1ccccc1 | 7% |
| c1ccc2[nH]c(-c3cscn3)nc2c1 | -6% |
| CC(C)CCC[C@@H](C)[C@H]1CC[C@H]2C3=CC[C@H]4C[C@@H](O)CC[C@]4(C)[C@H]3CC[C@]12C | -20% |
| CC1C(=O)CCC1=O | 61% |
| N=C(N)NC(=N)NCCc1ccccc1 | -10% |
| CCC[C@H](NC(=O)[C@@H]1[C@H]2CCC[C@H]2CN1C(=O)[C@@H](NC(=O)[C@@H](NC(=O)c1cnccn1)C1CCCCC1)C(C)(C)C)C(=O)C(=O)NC1CC1 | 3% |
| COc1cccc2c1C(=O)c1c(O)c3c(c(O)c1C2=O)C[C@@](O)(C(=O)CO)C[C@@H]3O[C@H]1C[C@H](N)[C@H](O)[C@H](C)O1 | -5% |
| CC(=O)Oc1c(C)c(C)c2c(c1C)CC[C@@](C)(CCC[C@H](C)CCC[C@H](C)CCCC(C)C)O2 | 15% |
| COc1c(O)cc2oc(-c3ccc(O)c(O)c3)cc(=O)c2c1O | -19% |
| NC(CCC(=O)O)C(=O)O (racemic) | 1% |
| C#C[C@]1(OC(C)=O)CC[C@H]2[C@@H]3CCC4=CC(=NO)CC[C@@H]4[C@H]3CC[C@@]21CC (mixture of isomers) | 3% |
| Cc1cc2nc[nH]c2cc1C | -50% |
| CCCCCCCC/C=C\CCCCCCCC(=O)OCC(COC(=O)CCCCCCC/C=C\CCCCCCCC)OC(=O)CCCCCCCCCCCCCCC | 1% |

Study 4
Structure (SMILES): COc1cc(C(=O)N2CCC(N3CCN(C)CC3)CC2)ccc1Nc1ncc2c(n1)N(C)c1ccccc1C(=O)N2C
MAP/microtubule affinity-regulating kinase 4: MAP/microtubule affinity-regulating kinase 4 (Mus musculus, UniProt Q8CIP4)
Sequence of UniProt Q8CIP4 (whole entry, looked up): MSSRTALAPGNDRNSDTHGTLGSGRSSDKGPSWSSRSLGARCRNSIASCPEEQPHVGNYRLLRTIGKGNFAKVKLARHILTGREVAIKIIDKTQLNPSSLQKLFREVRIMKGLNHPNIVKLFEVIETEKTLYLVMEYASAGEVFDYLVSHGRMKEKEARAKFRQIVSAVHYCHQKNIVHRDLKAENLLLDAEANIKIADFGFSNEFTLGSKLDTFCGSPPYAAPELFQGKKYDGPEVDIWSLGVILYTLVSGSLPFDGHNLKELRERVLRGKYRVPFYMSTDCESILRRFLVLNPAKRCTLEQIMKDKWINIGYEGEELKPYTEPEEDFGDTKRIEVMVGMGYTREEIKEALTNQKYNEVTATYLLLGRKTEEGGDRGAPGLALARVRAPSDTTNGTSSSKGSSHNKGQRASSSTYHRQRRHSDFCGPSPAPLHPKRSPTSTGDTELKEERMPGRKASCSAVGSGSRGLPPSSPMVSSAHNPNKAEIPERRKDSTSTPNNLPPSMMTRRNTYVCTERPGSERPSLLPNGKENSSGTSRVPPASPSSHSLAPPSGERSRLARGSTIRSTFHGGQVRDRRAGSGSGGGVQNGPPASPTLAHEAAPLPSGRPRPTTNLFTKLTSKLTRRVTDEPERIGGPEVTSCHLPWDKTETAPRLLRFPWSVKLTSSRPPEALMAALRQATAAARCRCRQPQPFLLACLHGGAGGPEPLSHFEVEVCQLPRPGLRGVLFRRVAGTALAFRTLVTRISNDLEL
| target | assay | test system | conditions | inhibition [%] |
| --- | --- | --- | --- | --- |
| ILK (mouse) | probe labelling, KiNativ ATP probe | mouse brain lysate | 0.1 µM, LYS1 labelled site | 7.1 |
| ACK (mouse) | probe labelling, KiNativ, refers to: Lys1 site peptide | brain tissue lysate (mouse) | 1 µM, added: ATP acyl-phosphate probe | 18.1 |
| SGK2 (mouse) | probe labelling, inhibitor, KiNativ ActivX ATP probe | mouse brain lysate | 1 µM, Lys1 site peptide | -9.8 |
| SLK mouse | KiNativ profiling | mouse brain lysate | 1 µM, LYS2 site, added: ATP acyl phosphate probe | 16 |
| MAP/microtubule affinity-regulating kinase 4 | KiNativ profiling | mouse brain lysate | 1 µM, LYS1 site, added: ATP acyl phosphate probe | 0.3 |
| PKD2 human | KiNativ profiling | human PBMC | 0.1 µM, LYS1 site, added: ADP acyl phosphate probe | -1.6 |
| ULK3 (mouse) | probe labelling, KiNativ, refers to: EVVAIkCVAK peptide, LYS1 site | brain tissue lysate (mouse) | 0.1 µM, added: ATP acyl-phosphate probe | 21.9 |
| mouse ILK | probe labelling, KiNativ ATP probe | mouse brain lysate | 0.1 µM, kinase domain ISMADVkFSFQCPGR | 5.4 |
| mouse PYK2 | probe labelling, KiNativ ATP probe | mouse brain lysate | 0.1 µM | -0.8 |
| mouse ROCK1 and ROCK2 | probe labelling, KiNativ ADP probe | mouse brain lysate | 1 µM | -7.7 |
| MAP/microtubule affinity-regulating kinase 4 | KiNativ profiling | mouse brain lysate | 1 µM, LYS1 site, added: ADP acyl phosphate probe | -4.9 |
| BTK human | KiNativ profiling | human PBMC | 1 µM, activation loop site, added: ATP acyl phosphate probe | -18.4 |
| AMPKa1 and AMPKa2 (mouse) | probe labelling, KiNativ, refers to: VAVkILNR peptide, Lys1 site | brain tissue lysate (mouse) | 0.1 µM, added: ADP acyl-phosphate probe | 3.5 |
| QSK (mouse) | probe labelling, KiNativ, refers to: LYS2 site peptide | brain tissue lysate (mouse) | 1 µM, added: ADP acyl-phosphate probe | 4.5 |
| CDK5 (mouse) | probe labelling, KiNativ ATP probe | mouse brain lysate | 1 µM, LYS2 labelled site | 14.5 |
| RSK3 domain 1 (mouse) | probe labelling, inhibitor, KiNativ ActivX ADP probe | mouse brain lysate | 1 µM, Lys1 site peptide | 0.6 |
| mouse NUAK1 | probe labelling, KiNativ ADP probe | mouse brain lysate | 0.1 µM | 2.4 |

Repeated from above (study 3):
| Structure (SMILES) | inhibition |
| --- | --- |
| CC(C)CCC[C@@H](C)[C@H]1CC[C@H]2C3=CC[C@H]4C[C@@H](O)CC[C@]4(C)[C@H]3CC[C@]12C | -20% |
| CC1C(=O)CCC1=O | 61% |
| N=C(N)NC(=N)NCCc1ccccc1 | -10% |
| CCC[C@H](NC(=O)[C@@H]1[C@H]2CCC[C@H]2CN1C(=O)[C@@H](NC(=O)[C@@H](NC(=O)c1cnccn1)C1CCCCC1)C(C)(C)C)C(=O)C(=O)NC1CC1 | 3% |
| COc1cccc2c1C(=O)c1c(O)c3c(c(O)c1C2=O)C[C@@](O)(C(=O)CO)C[C@@H]3O[C@H]1C[C@H](N)[C@H](O)[C@H](C)O1 | -5% |
| CC(=O)Oc1c(C)c(C)c2c(c1C)CC[C@@](C)(CCC[C@H](C)CCC[C@H](C)CCCC(C)C)O2 | 15% |
